Measurements collected from several papers.
± gives the spread as reported.
TDP1: Tyrosyl-DNA phosphodiesterase 1 (TDP1, Homo sapiens, UniProt Q9NUW8)
UniProt Q9NUW8, sequence (whole entry, looked up): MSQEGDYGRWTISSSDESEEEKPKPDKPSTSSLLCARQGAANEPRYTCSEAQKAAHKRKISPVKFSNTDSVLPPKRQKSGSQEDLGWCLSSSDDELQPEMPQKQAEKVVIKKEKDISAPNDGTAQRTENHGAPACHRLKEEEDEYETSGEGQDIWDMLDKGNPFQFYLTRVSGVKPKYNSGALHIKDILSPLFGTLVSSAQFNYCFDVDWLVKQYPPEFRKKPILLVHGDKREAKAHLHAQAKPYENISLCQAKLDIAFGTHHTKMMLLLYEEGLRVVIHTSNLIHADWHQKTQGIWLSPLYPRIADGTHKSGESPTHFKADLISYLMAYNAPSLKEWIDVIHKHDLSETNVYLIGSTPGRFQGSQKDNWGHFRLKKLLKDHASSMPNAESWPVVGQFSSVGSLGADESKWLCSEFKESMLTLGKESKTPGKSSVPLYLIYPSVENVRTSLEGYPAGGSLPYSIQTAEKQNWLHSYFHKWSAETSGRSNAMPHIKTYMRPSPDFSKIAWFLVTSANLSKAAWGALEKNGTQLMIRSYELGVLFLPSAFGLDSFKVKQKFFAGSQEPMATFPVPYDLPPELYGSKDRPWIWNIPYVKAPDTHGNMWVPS
CHRM5: Muscarinic acetylcholine receptor M5 (CHRM5, Homo sapiens, UniProt P08912)
UniProt P08912, sequence (whole entry, looked up): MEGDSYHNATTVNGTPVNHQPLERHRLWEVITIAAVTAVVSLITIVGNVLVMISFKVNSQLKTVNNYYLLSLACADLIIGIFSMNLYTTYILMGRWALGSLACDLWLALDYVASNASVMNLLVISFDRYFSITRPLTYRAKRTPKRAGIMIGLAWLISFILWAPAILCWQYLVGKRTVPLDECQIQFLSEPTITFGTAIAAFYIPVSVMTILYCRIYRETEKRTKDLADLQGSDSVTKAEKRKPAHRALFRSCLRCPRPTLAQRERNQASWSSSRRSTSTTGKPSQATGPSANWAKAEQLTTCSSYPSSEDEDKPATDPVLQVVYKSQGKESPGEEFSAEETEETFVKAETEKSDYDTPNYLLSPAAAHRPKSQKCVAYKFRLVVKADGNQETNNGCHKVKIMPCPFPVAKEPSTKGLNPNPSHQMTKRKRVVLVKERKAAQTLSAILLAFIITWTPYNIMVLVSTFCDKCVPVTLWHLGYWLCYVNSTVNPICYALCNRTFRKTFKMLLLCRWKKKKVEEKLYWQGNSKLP
NTSR1: Neurotensin receptor type 1 (NTSR1, Homo sapiens, UniProt P30989)
UniProt P30989, sequence (whole entry, looked up): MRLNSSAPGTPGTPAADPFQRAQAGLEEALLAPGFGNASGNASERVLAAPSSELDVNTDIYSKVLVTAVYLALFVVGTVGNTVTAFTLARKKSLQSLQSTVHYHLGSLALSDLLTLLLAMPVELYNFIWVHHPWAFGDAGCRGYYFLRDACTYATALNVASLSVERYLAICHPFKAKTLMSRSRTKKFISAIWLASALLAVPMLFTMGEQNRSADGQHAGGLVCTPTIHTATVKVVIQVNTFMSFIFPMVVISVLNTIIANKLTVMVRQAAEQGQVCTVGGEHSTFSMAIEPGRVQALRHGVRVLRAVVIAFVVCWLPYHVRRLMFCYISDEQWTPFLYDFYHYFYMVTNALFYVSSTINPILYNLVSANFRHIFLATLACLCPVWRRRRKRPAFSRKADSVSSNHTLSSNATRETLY
UniProt P24530, sequence (whole entry, looked up): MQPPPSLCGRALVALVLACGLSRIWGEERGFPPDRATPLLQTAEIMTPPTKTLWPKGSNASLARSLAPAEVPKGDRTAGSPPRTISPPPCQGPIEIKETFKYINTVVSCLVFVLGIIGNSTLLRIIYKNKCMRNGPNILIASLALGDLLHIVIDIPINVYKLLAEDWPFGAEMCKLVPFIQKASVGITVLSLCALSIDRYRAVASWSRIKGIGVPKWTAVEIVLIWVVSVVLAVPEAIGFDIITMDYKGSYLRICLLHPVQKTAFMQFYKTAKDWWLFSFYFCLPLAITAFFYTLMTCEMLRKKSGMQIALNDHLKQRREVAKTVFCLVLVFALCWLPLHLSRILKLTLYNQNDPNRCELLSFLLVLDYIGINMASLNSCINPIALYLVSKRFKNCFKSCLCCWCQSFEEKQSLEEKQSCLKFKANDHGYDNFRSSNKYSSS
UniProt P25103, sequence (whole entry, unmodified, looked up): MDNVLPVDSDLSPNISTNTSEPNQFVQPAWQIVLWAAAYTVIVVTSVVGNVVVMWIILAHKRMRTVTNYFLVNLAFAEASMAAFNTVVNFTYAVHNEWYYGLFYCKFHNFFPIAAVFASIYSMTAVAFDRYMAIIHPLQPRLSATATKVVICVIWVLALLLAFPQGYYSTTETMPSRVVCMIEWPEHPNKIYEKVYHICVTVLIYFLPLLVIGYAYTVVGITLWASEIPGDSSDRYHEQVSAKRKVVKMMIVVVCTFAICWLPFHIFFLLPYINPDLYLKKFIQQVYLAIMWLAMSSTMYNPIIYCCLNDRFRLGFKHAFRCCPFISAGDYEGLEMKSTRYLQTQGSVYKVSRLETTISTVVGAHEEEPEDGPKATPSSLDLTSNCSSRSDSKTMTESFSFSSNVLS
UniProt Q969F8, sequence (whole entry, looked up): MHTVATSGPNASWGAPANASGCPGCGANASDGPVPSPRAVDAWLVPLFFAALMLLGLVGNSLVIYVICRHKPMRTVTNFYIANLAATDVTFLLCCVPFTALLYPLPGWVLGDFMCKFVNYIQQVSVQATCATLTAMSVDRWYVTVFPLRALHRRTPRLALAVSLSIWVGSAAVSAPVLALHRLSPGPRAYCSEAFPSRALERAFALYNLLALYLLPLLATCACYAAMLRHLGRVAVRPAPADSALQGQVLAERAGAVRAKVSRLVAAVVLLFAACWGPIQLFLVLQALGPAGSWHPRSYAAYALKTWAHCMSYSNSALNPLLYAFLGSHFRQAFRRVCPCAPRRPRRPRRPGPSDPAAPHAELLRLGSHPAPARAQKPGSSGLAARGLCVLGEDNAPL
UniProt P20309, sequence (whole entry, looked up): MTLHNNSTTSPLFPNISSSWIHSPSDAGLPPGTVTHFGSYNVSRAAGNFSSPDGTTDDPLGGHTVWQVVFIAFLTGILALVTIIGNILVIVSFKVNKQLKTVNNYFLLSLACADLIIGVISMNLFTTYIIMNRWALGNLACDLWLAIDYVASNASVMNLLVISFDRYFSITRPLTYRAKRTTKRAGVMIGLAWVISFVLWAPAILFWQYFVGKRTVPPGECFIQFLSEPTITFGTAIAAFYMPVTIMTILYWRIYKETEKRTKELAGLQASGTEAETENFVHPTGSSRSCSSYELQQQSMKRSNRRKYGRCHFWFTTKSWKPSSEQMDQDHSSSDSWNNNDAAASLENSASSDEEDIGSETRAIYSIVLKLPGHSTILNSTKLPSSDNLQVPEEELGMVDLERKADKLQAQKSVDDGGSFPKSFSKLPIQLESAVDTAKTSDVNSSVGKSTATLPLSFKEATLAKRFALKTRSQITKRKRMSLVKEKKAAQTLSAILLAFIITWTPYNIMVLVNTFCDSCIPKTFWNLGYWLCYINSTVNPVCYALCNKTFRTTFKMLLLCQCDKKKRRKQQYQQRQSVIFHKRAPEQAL
UniProt Q9NSD7, sequence (whole entry, unmodified, looked up): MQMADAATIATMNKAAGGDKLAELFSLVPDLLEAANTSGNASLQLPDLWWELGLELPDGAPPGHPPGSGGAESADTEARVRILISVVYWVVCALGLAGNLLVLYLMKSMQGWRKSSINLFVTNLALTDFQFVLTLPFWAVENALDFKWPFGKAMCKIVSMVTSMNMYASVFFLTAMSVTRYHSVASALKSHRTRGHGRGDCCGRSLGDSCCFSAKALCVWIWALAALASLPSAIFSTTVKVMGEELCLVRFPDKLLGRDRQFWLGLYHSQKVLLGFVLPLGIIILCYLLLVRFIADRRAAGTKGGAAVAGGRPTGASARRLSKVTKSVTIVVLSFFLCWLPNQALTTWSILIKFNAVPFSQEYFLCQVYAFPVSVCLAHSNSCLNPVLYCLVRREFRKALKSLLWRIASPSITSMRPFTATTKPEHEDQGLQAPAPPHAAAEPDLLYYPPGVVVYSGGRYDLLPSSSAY

| Compound | target | assay | test system | setting | how to read | endpoint | result |
| --- | --- | --- | --- | --- | --- | --- | --- |
| O=C(O)c1ccc(Nc2c(-c3ccccc3)nc3ccc(CON=Cc4cccc5c4OCO5)cn23)cc1 (mixture of isomers) | TDP1 | enzyme activity, inhibitor | – | 100 µM, unpurified compound | – | inhibition | 20.1% |
| CCCCOc1ccc(C(=O)OCCN2CC=CCC2)cc1 | CHRM5 | – | membranes | 100 µM, 15 h, added: carbachol | reference: control | Emax | 1.69 ± 0.07 fold |
| CNC(=N)NCCC[C@H](NC(=O)[C@H](CC(C)C)NC(=O)NNC(=O)[C@H](Cc1ccccc1)NC(=O)[C@@H](NC(=O)[C@H](CC(N)=O)NC(=O)[C@@H]1C[C@@H](O)CN1C(=O)[C@@H](Cc1ccc(O)cc1)NC(C)=O)[C@@H](C)O)C(=O)N[C@@H](Cc1c[nH]c2ccccc12)C(N)=O | KiSS-1 receptor (KISS1R, Homo sapiens, UniProt Q969F8) | inositol phosphate, agonist, TR-FRET | HEK293 | – | – | Emax | 96.2% |
| CCCCCCOc1ccc(C(=O)OCC[N+]2(C)CC=CCC2)cc1 (stereo not drawn) | Muscarinic acetylcholine receptor M3 (CHRM3, Homo sapiens, UniProt P20309) | – | membranes | 1 µM, 15 h, added: carbachol | reference: control | Emax | 1.14 ± 0.07 fold |
| CCc1cc(O)cc2c(/C=N/NC(=N)NCCc3ccc(Cl)cc3)c[nH]c12 | Relaxin-3 receptor 1 (RXFP3, Homo sapiens, UniProt Q9NSD7, S163A) | – | HEK-293T | – | reference: wild type | Emax | 65.3 ± 6.13% |
| C=CCn1c(=O)c2ccccc2n2c(SCC(=O)OC)nnc12 | CHRM5 | receptor activation, agonist | – | concentration not given, 16 h | – | Emax | 120 ± 8% |
| CCCC[C@H](NC(=O)[C@H](CC(C)C)NC(=O)[C@H](CO)NC(=O)[C@H](CO)NC(=O)[C@H](C)NC(=O)[C@H](CO)NC(=O)[C@H](C)N)C(=O)N[C@@H](CC(=O)O)C(=O)N[C@@H](CCCCN)C(=O)N[C@@H](CCC(=O)O)C(=O)N[C@@H](C)C(=O)N[C@H](C(=O)N[C@@H](Cc1ccc(O)cc1)C(=O)N[C@@H](Cc1ccccc1)C(=O)N[C@@H](C)C(=O)N[C@@H](Cc1c[nH]cn1)C(=O)N[C@@H](CC(C)C)C(=O)N[C@@H](CC(=O)O)C(=O)N[C@H](C(=O)N[C@H](C(=O)N[C@@H](Cc1c[nH]c2ccccc12)C(=O)O)[C@@H](C)CC)[C@@H](C)CC)C(C)C | Endothelin receptor type B (EDNRB, Homo sapiens, UniProt P24530) | agonist | HEK293 | ETBR/ETAR ratio 1:0 | – | Emax | 98 ± 5% |
| O=C(O)c1ccc(Nc2c(-c3ccc(CON=Cc4c(Cl)c5cc(Cl)ccc5oc4=O)cc3)nc3cc(-c4ccccc4)ccn23)cc1 (mixture of isomers) | TDP1 | enzyme activity, inhibitor | – | 100 µM, unpurified compound | – | inhibition | 99.4% |
| COc1cc2nc(C3CC3)nc(N3CCC(c4ccccc4OC)CC3)c2cc1OC | NTSR1 | β-arrestin recruitment, agonist | HEK-293T | – | – | Emax | 70.8% |
| CCCCCCOc1ccc(C(=O)OCCN2CC=CCC2)cc1 | CHRM5 | – | membranes | 10 µM, 15 h, added: carbachol | reference: control | Emax | 1.45 ± 0.09 fold |
| CSCC[C@H](NC(=O)[C@H](CC(C)C)NC(=O)CNC(=O)[C@H](Cc1ccccc1)NC(=O)[C@H](Cc1ccccc1)NC(=O)[C@@H](N)CCC(N)=O)C(N)=O | Substance-P receptor (TACR1, Homo sapiens, UniProt P25103, N85D) | agonist | – | concentration not given | – | Emax | 84 ± 6% |
| COc1ccccc1C1CCN(c2nc(C3(C)CC3)nc3ccc(N(C)CCO)cc23)CC1 | NTSR1 | β-arrestin recruitment, agonist | HEK-293T | – | – | Emax | 106% |

A few entries again:
| Compound | target | assay | test system | setting | how to read | endpoint | result |
| --- | --- | --- | --- | --- | --- | --- | --- |
| CNC(=N)NCCC[C@H](NC(=O)[C@H](CC(C)C)NC(=O)NNC(=O)[C@H](Cc1ccccc1)NC(=O)[C@@H](NC(=O)[C@H](CC(N)=O)NC(=O)[C@@H]1C[C@@H](O)CN1C(=O)[C@@H](Cc1ccc(O)cc1)NC(C)=O)[C@@H](C)O)C(=O)N[C@@H](Cc1c[nH]c2ccccc12)C(N)=O | KiSS-1 receptor (KISS1R, Homo sapiens, UniProt Q969F8) | inositol phosphate, agonist, TR-FRET | HEK293 | – | – | Emax | 96.2% |
